{"data": "Results pooled from the literature", "organism": "Staphylococcus epidermidis", "note": "Compare with care: the assays were run in different laboratories. ± gives the spread as reported."}
{"SMILES": "CCc1cc(=O)c2c(OCC(O)CN3CCCCC3)c3ccoc3c(OC)c2o1 (centres unmarked)", "test": "broth microdilution", "test system": "ATCC 35984", "setting": "19 h, 35 °C", "quantity": "MIC", "value": "> 256 µg/mL"}
{"SMILES": "CN[C@H](CC(C)C)C(=O)N[C@H]1C(=O)N[C@@H](CC(N)=O)C(=O)N[C@H]2C(=O)N[C@H]3C(=O)N[C@H](C(=O)N[C@H](C(=O)O)c4cc(O)cc(O)c4-c4cc3ccc4O)[C@H](O)c3ccc(c(Cl)c3)Oc3cc2cc(c3O[C@@H]2O[C@H](CO)[C@@H](O)[C@H](O)[C@H]2O[C@H]2C[C@](C)(N)[C@H](O)[C@H](C)O2)Oc2ccc(cc2Cl)[C@H]1O", "test": "E-test", "setting": "24 h", "quantity": "MIC", "value": "4 µg/mL"}
{"SMILES": "Cc1cc(C)n(C(N)=S)n1", "test": "broth microdilution, agar subculture", "test system": "ATCC 12228", "setting": "24 h", "quantity": "MBC", "value": "> 1000 µg/mL"}
{"SMILES": "CCc1cc(=O)c2c(OCC(O)CN3CCC(C)CC3)c3ccoc3c(OC)c2o1 (centres unmarked)", "test": "broth microdilution", "test system": "ATCC 12228", "setting": "19 h, 35 °C", "quantity": "MIC", "value": "> 256 µg/mL"}
{"SMILES": "O=C(O)CN1C(=O)C(=C2C(=O)N(Cc3ccc(Cl)cc3)c3ccccc32)SC1=S", "test": "microbial growth", "test system": "ATCC12228", "setting": "6 h", "quantity": "IC50", "value": "3.84 µM"}
{"SMILES": "Cc1cc(O)n(C(N)=S)n1", "test": "broth microdilution, agar subculture", "test system": "ATCC 12228", "setting": "24 h", "quantity": "MBC", "value": "250 µg/mL"}
{"SMILES": "CCOC(=O)c1c(N)csc1-c1cn(-c2ccccc2)nc1-c1ccc(C)cc1", "test": "broth microdilution", "test system": "clinical urinary isolate", "setting": "compound gamma-irradiated 20 kGy", "quantity": "MIC", "value": "0.123 ± 0.5 µg/mL"}
{"SMILES": "O=C(O)CCN1C(=O)C(=C2C(=O)N(Cc3ccc(F)cc3)c3ccccc32)SC1=S", "test": "microbial growth", "test system": "ATCC12228", "setting": "6 h", "quantity": "IC50", "value": "9.46 µM"}
{"note": "Repeated from above:"}
{"SMILES": "Cc1cc(O)n(C(N)=S)n1", "test": "broth microdilution, agar subculture", "test system": "ATCC 12228", "setting": "24 h", "quantity": "MBC", "value": "250 µg/mL"}
